{"data": "Measurements of several laboratories", "note": "Each line is one published result; not all experiments were run side by side. Values joined by “and” are separate records of one study, mostly repeats; a detail may differ. Numbers after ± are the reported error."}
{"Compound": "COc1cnc2cccc(N3CCc4c(cc(Cn5ccnc5)cc4-c4cn(C)nc4C(F)(F)F)C3=O)c2c1", "test system": "BALB/c nude mice, MV4-11 xenograft", "conditions": "intraperitoneal, 50 mg/kg, day 17", "endpoint": "tumour volume", "value": "178 mm3 and 151 mm3 and 129 mm3 and 169 mm3"}
{"Compound": "COc1ccc2cc3[n+](cc2c1OCCCOC(=O)c1cscn1)CCc1cc2c(cc1-3)OCO2", "test system": "C57BL/6 mice, high-fat diet", "conditions": "oral gavage, 20 mg/kg daily, 14 weeks", "how to read": "baseline: HFD control", "endpoint": "plasma LDL-C reduction", "value": "43.5%"}
{"Compound": "COc1ccc(C(=O)CCc2cc(C(CCc3ccc(O)cc3OC)c3ccc(O)cc3)c(O)cc2OC)cc1 (racemic)", "test system": "human blood", "conditions": "1 µM, added: A23187", "endpoint": "DHA level", "value": "117000 ± 33600 pg/mL"}
{"Compound": "[Mn+2].[O-][Cl+3]([O-])([O-])[O-].[O-][Cl+3]([O-])([O-])[O-].c1ccc(CN2Cc3cccc(n3)CN(Cc3ccccn3)Cc3cccc(n3)C2)nc1", "test system": "HEPES buffer with NaCl", "conditions": "33 °C, 1.4 T", "endpoint": "r1 relaxivity", "value": "2.53 mM⁻¹ s⁻¹"}
{"Compound": "COc1cc(O)ccc1CCC(c1ccc(O)cc1)c1cc2c(c(C)c1O)OC(c1ccc(O)cc1)CC2 (mixture of isomers)", "test system": "human blood", "conditions": "30 µM, added: A23187", "endpoint": "20-OH-LTB4 level", "value": "3 ± 3 pg/mL"}
{"Compound": "O=C(N/N=C/c1ccc2c(ccc[n+]2Cc2ccccc2)c1)c1cccc(C(=O)N/N=C/c2ccc3c(ccc[n+]3Cc3ccccc3)c2)n1", "target or system": "myc22 MYC G4-DNA parallel", "assay": "FRET melting", "conditions": "1 µM, K1 buffer, DNA 0.2 µM", "endpoint": "ΔTm", "value": "17.1 ± 0.5 °C"}
{"Compound": "CC(=O)[O-].O.O.[O-]c1ccc(Br)cc1C=NCCN1CCOCC1.[Zn+2]", "assay": "hydroxyl radical scavenging", "conditions": "40 µM", "endpoint": "inhibition", "value": "8.05%"}
{"Compound": "CC(C)[C@H](NC(=O)[C@H](CC(=O)O)NC(=O)[C@@H](NC(=O)[C@H](Cc1c[nH]c2ccccc12)NC(=O)[C@H](CCC(=O)O)NC(=O)[C@H](C)NC(=O)[C@H](CC(=O)O)NC(=O)CNC(=O)[C@H](Cc1ccc(O)cc1)NC(=O)[C@H](Cc1ccc(OP(=O)(O)O)cc1)NC(=O)[C@H](Cc1ccc(O)cc1)NC(=O)CCNC(=O)c1ccc(C(=O)[O-])c(-c2c3ccc(=[N+](C)C)cc-3oc3cc(N(C)C)ccc23)c1)C(C)C)C(=O)N[C@@H](CO)C(=O)O", "assay": "immunohistochemistry", "test system": "ApoE-/- mice, plaque", "conditions": "dose not given, 21 days", "endpoint": "Ly6C+ monocyte proportion", "value": "19.8 ± 6.27%"}
{"Compound": "C[C@H](NC(=O)COC(=O)[C@H](C)NC(=O)CO)C(=O)O", "test system": "water", "conditions": "pH 2, 65 °C", "endpoint": "backbone scission rate constant", "value": "0.0128 h⁻¹"}
{"Compound": "COc1cc2c(NC3CCN(C(C)C)CC3)cc(N3CCOCC3)nc2cc1OCCCN1CCCC1", "assay": "TMT proteomics, measured: TPI1", "test system": "5xFAD mice, hippocampus", "conditions": "dose not given", "how to read": "baseline: wild-type mice", "endpoint": "log2 fold change", "value": 0.00377}
{"Compound": "CNS(=O)(=O)Nc1nccc(Cc2c(C)c3ccc(Oc4ncccc4F)cc3oc2=O)c1F", "target or system": "BC-2", "assay": "cell viability", "conditions": "7 days", "endpoint": "IC50", "value": "> 1 µM"}
{"Compound": "CCC(CC)n1c(Cc2cccs2)nc2cc(C(=O)N[C@@H](CC(=O)O)c3ccccc3)ccc21", "assay": "measured: systolic, diastolic pressure", "test system": "mouse", "conditions": "dose not given, 2 wk", "endpoint": "blood pressure", "value": "decreased"}
{"Compound": "COC1CN([C@H]2CC[C@H]([C@@]3(C)Oc4c(Cl)cc(C(=O)NCc5c(SC)cc(C)[nH]c5=O)c(C)c4O3)CC2)C1", "assay": "RNA-seq, measured: HIC1", "test system": "human, whole blood", "conditions": "dose not given, 24 h", "how to read": "baseline: pretreatment baseline", "endpoint": "log2 fold change", "value": 1.08}
{"Compound": "CCCCCc1ccc(S(=O)(=O)N2CC2C(=O)OC)cc1 (stereo not drawn)", "test system": "mouse, Lewis lung carcinoma", "conditions": "intraperitoneal, 15 mg/kg, 16 doses, day 12", "endpoint": "tumour volume", "value": "366 mm3"}
{"Compound": "Nc1ncc(-c2cc(-c3cnn(CC(F)(F)F)c3)ncc2F)nc1C(=O)NC1CNCC(F)C1 (stereo not drawn)", "target or system": "ADCK3", "assay": "KINOMEscan", "conditions": "1 µM", "how to read": "baseline: DMSO control", "endpoint": "remaining binding", "value": "61%"}
{"Compound": "CC(CCC(=O)NCc1ccc(C(=O)NO)cc1)C1CCC2C3C(O)CC4CC(O)CCC4(C)C3CCC12C (stereo not drawn)", "assay": "measured: Tauro-conj", "test system": "PCK rat (Pkhd1 mutant), liver", "conditions": "oral gavage, dose not given, 5 months", "how to read": "baseline: total bile acids", "endpoint": "relative abundance", "value": "76.6%"}
{"Compound": "COc1ccccc1-c1ccncc1C(=O)Nc1nnc(OCc2ccc(Cl)cc2)s1", "test system": "Brca1 Δ11/Δ11 Polq-/- MEFs, Mus musculus", "conditions": "1.25 µM, average of runs", "how to read": "baseline: 0 µM", "endpoint": "colony survival", "value": "92.5%"}
{"Compound": "CC(C)C[C@H](NC(=O)CNC(=O)[C@H](CCC(N)=O)NC(=O)[C@H](CC(C)C)NC(=O)[C@H](CC(C)C)NC(=O)[C@H](CCCNC(=N)N)NC(=O)[C@H](CCC(N)=O)NC(=O)[C@H](CC(C)C)NC(=O)[C@H](CCCNC(=N)N)NC(=O)[C@H](C)NC(=O)CNC(=O)[C@H](CCC(=O)O)NC(=O)[C@H](CCCNC(=N)N)NC(=O)[C@H](CC(C)C)NC(=O)[C@H](CCCNC(=N)N)NC(=O)[C@H](CO)NC(=O)[C@H](CC(C)C)NC(=O)[C@H](CCC(=O)O)NC(=O)[C@H](CO)NC(=O)[C@@H](NC(=O)[C@H](Cc1ccccc1)NC(=O)[C@@H](NC(=O)CNC(=O)[C@H](CC(=O)O)NC(=O)C(C)(C)NC(=O)[C@@H](N)Cc1c[nH]cn1)[C@@H](C)O)[C@@H](C)O)C(=O)N[C@@H](CC(C)C)C(=O)N[C@@H](CCC(N)=O)C(=O)NCC(=O)N[C@@H](CC(C)C)C(=O)N[C@H](C(=O)NCC(=O)N[C@@H](CCCCNC(=O)COCCOCCNC(=O)COCCOCCNC(=O)CC[C@H](NC(=O)CCCCCCCCCCCCCCCCC(=O)O)C(=O)O)C(N)=O)C(C)C", "test system": "DIO C57BL/6J mice", "conditions": "sc, 300 nmol/kg twice daily, end of 8 days", "endpoint": "plasma glucagon", "value": "decreased"}
{"Compound": "Cc1ncsc1-c1ccc(C(C)NC(=O)C2CC(O)CN2C(=O)C(NC(=O)CCCCCCCCCCN2CCCC(Nc3ncc(Cl)c(Nc4ccccc4S(=O)(=O)C(C)C)n3)C2)C(C)(C)C)cc1 (stereo not drawn)", "target or system": "22Rv1", "assay": "RNA-seq, measured: ZNF778 mRNA", "conditions": "concentration not given", "how to read": "baseline: DMSO", "endpoint": "log2 fold change", "value": -1.19}
{"Compound": "CC(C)C[C@H](NC(=O)[C@H](Cc1ccccc1)NC(=O)[C@H](C)NC(=O)[C@@H](CS)NC(=O)CNC(=O)[C@H](N)CO)C(=O)N[C@@H](CO)C(=O)N[C@H](C(=O)N[C@@H](CCCCN)C(=O)N[C@@H](CCCCN)C(=O)N[C@@H](CCC(N)=O)C(=O)N[C@@H](Cc1ccccc1)C(=O)N[C@@H](CCC(=O)O)C(=O)N[C@@H](CCC(=O)O)C(=O)N[C@@H](CC(C)C)C(=O)N[C@H](C(=O)N[C@@H](CC(C)C)C(=O)NCC(=O)N[C@@H](CCC(=O)O)C(=O)N[C@@H](Cc1ccccc1)C(=O)N[C@@H](CC(C)C)C(=O)N[C@H](CCCCN)C(=O)N[C@H](CC(C)C)C(=O)N[C@H](CC(=O)O)C(=O)N[C@@H](CCCNC(=N)N)C(=O)N[C@H](CCCNC(=N)N)C(=O)N[C@@H](CCCNC(=N)N)C(=O)N[C@@H](CCCCN)C(=O)O)[C@@H](C)O)C(C)C", "assay": "immunofluorescence", "test system": "mouse A549 xenograft, tumour", "conditions": "intratumoral or intravenous, dose not given", "endpoint": "α-SMA staining", "value": "decreased"}
{"Compound": "COc1cccc(OCCN2CCC[C@H](CN3CCc4cc(OC)c(OC)cc4CC3=O)C2)c1", "test system": "C57BL/6J mouse, female, chronic social defeat stress", "conditions": "intraperitoneal, 5 mg/kg, 14 d post-dose", "how to read": "baseline: before dosing", "endpoint": "time in centre, open field", "value": "no effect"}
{"Compound": "N=C(N)NCCC[C@@H]1NC(=O)[C@H](CCCNC(=N)N)NC(=O)[C@@H](CCCNC(=N)N)NC(=O)[C@@H](CCCNC(=N)N)NC(=O)[C@@H](C(c2ccccc2)c2ccccc2)NC(=O)[C@H](Cc2c[nH]c3ccccc23)NC(=O)[C@@H](C(c2ccccc2)c2ccccc2)NC1=O", "test system": "bacterial membrane liposomes", "conditions": "5 µg/mL, 50 min", "endpoint": "calcein leakage", "value": "38%"}
{"Compound": "O=[N][Fe]1([N]=O)[S](CCO)[Fe]([N]=O)([N]=O)[S]1CCO", "test system": "aged C57BL/6JNarl mice on Western diet", "conditions": "po, 2.65 mg/kg daily, 16 weeks", "endpoint": "plasma glucose", "value": "153 ± 45.8 mg/dL"}
{"Compound": "CN1CCC[C@]1(C)/C=C/S(=O)(=O)NC(=O)Nc1c2c(cc3c1CCC3)CCC2", "test system": "human, whole blood ex vivo", "conditions": "400 mg single dose, 24 h, single ascending dose, added: LPS and ATP", "endpoint": "IL-18 inhibition", "value": "75.3%"}
{"Compound": "Cc1cc(NC(=O)C(=O)N2C[C@@H](C)CC[C@@H]2c2ccc3scnc3c2)cnc1N", "test system": "mouse, HCT-116 MTAP wild-type xenograft", "conditions": "dose not given, same dose levels", "endpoint": "antitumour activity", "value": "no effect"}
{"Compound": "C=CC(=O)Nc1cccc(Cn2ncc3cnc(Nc4cnn(CCOC)c4)nc32)c1", "target or system": "human DLK", "assay": "KINOMEscan", "conditions": "100 nM", "how to read": "baseline: control", "endpoint": "binding", "value": "93%"}
{"Compound": "O=C(N/N=C/c1cc[n+](Cc2ccccc2)c2ccccc12)c1cc(C(=O)N/N=C/c2cc[n+](Cc3ccccc3)c3ccccc23)ncn1", "target or system": "myc22 MYC G4-DNA parallel", "assay": "FRET melting", "conditions": "1 µM, K1 buffer, DNA 0.2 µM, added: ds26 10 µM", "endpoint": "ΔTm", "value": "9.1 ± 0.2 °C"}
{"note": "Some of these lines once more:"}
{"Compound": "CCC(CC)n1c(Cc2cccs2)nc2cc(C(=O)N[C@@H](CC(=O)O)c3ccccc3)ccc21", "assay": "measured: systolic, diastolic pressure", "test system": "mouse", "conditions": "dose not given, 2 wk", "endpoint": "blood pressure", "value": "decreased"}
{"Compound": "COC1CN([C@H]2CC[C@H]([C@@]3(C)Oc4c(Cl)cc(C(=O)NCc5c(SC)cc(C)[nH]c5=O)c(C)c4O3)CC2)C1", "assay": "RNA-seq, measured: HIC1", "test system": "human, whole blood", "conditions": "dose not given, 24 h", "how to read": "baseline: pretreatment baseline", "endpoint": "log2 fold change", "value": 1.08}
